# Assay results of several laboratories.
# Each line is one published result; not all experiments were run side by side. “And” joins repeats or separate records; there may be more than shown. ± marks the error that the study gave.
# Organism: Acinetobacter baumannii
Structure (SMILES),test,system,conditions,how to read,quantity,result
NC[C@H]1O[C@H](O[C@H]2[C@H](O)[C@@H](O[C@H]3O[C@H](CO)[C@@H](O)[C@H](N)[C@H]3O)[C@H](N)C[C@@H]2N)[C@H](O)[C@@H](O)[C@@H]1O,,,"concentration not given, 0.2 mg/mL",,growth inhibition,94%
CN(C)c1ccc(O)c2c1C[C@H]1C[C@H]3[C@H](N(C)C)C(O)=C(C(N)=O)C(=O)[C@@]3(O)C(O)=C1C2=O,broth microdilution,NCTC 13424,,relative to: 5% CO2 over ambient air,MIC fold shift,1
CN1CCN(CCNCc2cc3cc(Br)ccc3nc2SCc2ccccc2)CC1,"NADH-driven proton pumping, ACMA quenching",inverted membrane vesicles,32 µg/mL,,inhibition,87%
CN(C)[C@@H]1C(O)=C(C(N)=O)C(=O)[C@@]2(O)C(O)=C3C(=O)c4c(O)cccc4[C@@](C)(O)[C@H]3C[C@@H]12,broth microdilution,NCTC 13424,,relative to: 5% CO2 over ambient air,MIC fold shift,0.5
N=C(N)c1ccc(OCc2ccc(Br)cc2COc2ccc(C(=N)N)cc2)cc1,,ATCC 17978,"concentration not given, together with: rifampicin",,MIC in combination,6.25 µg/mL
CN1CCN(CCNCc2cc3ccccc3nc2SCc2ccccc2)CC1,"NADH-driven proton pumping, ACMA quenching",inverted membrane vesicles,2 µg/mL,,inhibition,0%
N=C(N)c1ccc(OCc2ccccc2COc2ccc(C(=N)N)cc2)cc1,,ATCC 17978,"concentration not given, together with: rifampicin",,MIC in combination,25 µg/mL
c1ccc(CSc2nc3ccccc3cc2CNCc2ccc(N3CCCCC3)cc2)cc1,"NADH-driven proton pumping, ACMA quenching",inverted membrane vesicles,32 µg/mL,,inhibition,89%
N=C(N)c1ccc(OCc2ccc(-c3ccccc3)cc2COc2ccc(C(=N)N)cc2)cc1,,ATCC 17978,"concentration not given, together with: rifampicin",,MIC in combination,3.13 µg/mL
COc1cc2cc(CNCCC3CCN(C4CCCC4)CC3)c(SCc3ccccc3)nc2c(OC)c1OC,"NADH-driven proton pumping, ACMA quenching",inverted membrane vesicles,2 µg/mL,,inhibition,3%
N=C(N)c1ccc(OCc2cc(Br)cc(COc3ccc(C(=N)N)cc3)c2)cc1,checkerboard,ATCC 17978,"unit not given, together with: rifampicin",lower = stronger synergy,FICI,≤ 0.047
CN[C@@H]1[C@@H](O[C@H]2O[C@H](CO)[C@@H](N)[C@H](O)[C@H]2O)OC2C[C@@H](N)[C@@H](O[C@H]3[C@H](O)[C@@H](O)[C@H](N)C[C@@H]3N)OC2[C@@H]1O (stereo partly shown),broth microdilution,NCTC 13424,,relative to: 5% CO2 over ambient air,MIC fold shift,1
CN(C)c1ccc2nc3ccc(=[N+](C)C)cc-3sc2c1,broth microdilution,"ATCC 19606, susceptible","18 h, 37 °C, LED light 10 min, 1.57 mW",,MIC,> 128 µM
CC(C)C[C@H](NC(=O)[C@H](Cc1ccc(O)cc1)NC(=O)[C@@H]1CCCN1C(=O)[C@H](CCCNC(=N)N)NC(=O)[C@@H]1CCCN1C(=O)[C@H](CCCCN)NC(=O)[C@H](CC(=O)O)NC(=O)[C@@H]1CCCN1C(=O)[C@H](CCCNC(=N)N)NC(=O)C1(N)CCCCC1)C(=O)N1CCC[C@H]1C(=O)N[C@@H](CCCNC(=N)N)C(=O)N1CCC[C@H]1C(=O)N[C@@H](CCCNC(=N)N)C(=O)N1CCC[C@H]1C(=O)N1CCC[C@H]1C(=O)N[C@@H](CCCNC(=N)N)C(=O)N1CCC[C@H]1C(=O)N[C@H](C(=O)N[C@@H](CCCNC(=N)N)C(=O)N[C@@H](CSSC[C@H](NC(=O)[C@H](CCCNC(=N)N)NC(=O)[C@@H](NC(=O)[C@@H]1CCCN1C(=O)[C@H](CCCNC(=N)N)NC(=O)[C@@H]1CCCN1C(=O)[C@@H]1CCCN1C(=O)[C@H](CCCNC(=N)N)NC(=O)[C@@H]1CCCN1C(=O)[C@H](CCCNC(=N)N)NC(=O)[C@@H]1CCCN1C(=O)[C@H](CC(C)C)NC(=O)[C@H](Cc1ccc(O)cc1)NC(=O)[C@@H]1CCCN1C(=O)[C@H](CCCNC(=N)N)NC(=O)[C@@H]1CCCN1C(=O)[C@H](CCCCN)NC(=O)[C@H](CC(=O)O)NC(=O)[C@@H]1CCCN1C(=O)[C@H](CCCNC(=N)N)NC(=O)C1(N)CCCCC1)C(C)C)C(=O)NN)C(=O)NN)C(C)C,"membrane disruption, propidium iodide uptake",19606,"90 min, 37 °C",,MDC,43.9 ± 1 µg/mL
c1ccc(CSc2nc3ccc(-c4ccccc4)cc3cc2CNCCC2CCN(C3CCCC3)CC2)cc1,"NADH-driven proton pumping, ACMA quenching",inverted membrane vesicles,32 µg/mL,,inhibition,95%
Cc1c(CN(C)C(=O)/C=C/c2cnc3c(c2)CC(NC(=O)OC(C)(C)C)C(=O)N3)oc2ccccc12 (stereo not shown),broth microdilution,AR-0083,,,MIC,> 32 µg/mL
Cc1cc(Nc2ccc(S(F)(F)(F)(F)F)cc2)n2ccnc2n1,,HR1 clinical isolate,,,MIC,1.09 µg/mL
CCN1CCC(CCNCc2cc3cc(-c4ccccc4)ccc3nc2SCc2ccccc2)CC1,"NADH-driven proton pumping, ACMA quenching",inverted membrane vesicles,32 µg/mL,,inhibition,25%
N=C(N)c1ccc(OCCC(CCOc2ccc(C(=N)N)cc2)c2ccccc2)cc1 (stereo not shown),checkerboard,ATCC 17978,"unit not given, together with: rifampicin",lower = stronger synergy,FICI,≤ 0.047
Cc1c(CN(C)C(=O)/C=C/c2cnc3c(c2)CCC(=O)N3)oc2ccccc12,broth microdilution,W41979,,,MIC,> 32 µg/mL
C[C@@H](O)[C@H]1C(=O)N2C(C(=O)O)=C(SCCN=CN)C[C@H]12,,"0403, female ICR mice, peritonitis, liver",dose not given,,bacterial load,3.95 log CFU and 2.22 log CFU and 2.82 log CFU and 3.22 log CFU and 2.52 log CFU
CCN1CCC(CCNCc2cc3cc(Br)ccc3nc2SCc2ccccc2)CC1,"NADH-driven proton pumping, ACMA quenching",inverted membrane vesicles,32 µg/mL,,inhibition,85%
N=C(N)c1cccc(OCc2ccc(COc3cccc(C(=N)N)c3)cc2)c1,,ATCC 17978,"concentration not given, together with: rifampicin",,MIC in combination,25 µg/mL
CCN1CCC(CCNCc2cc3cc(OC)c(OC)c(OC)c3nc2SCc2ccccc2)CC1,"NADH-driven proton pumping, ACMA quenching",inverted membrane vesicles,2 µg/mL,,inhibition,0%
C[C@@H](O)[C@H]1C(=O)N2C(C(=O)O)=C(S[C@@H]3CN[C@H](C(=O)N(C)C)C3)[C@H](C)[C@H]12,,clinical isolate 2B5,,,MIC,96 µg/mL

# For quick reference, copied from above:
Structure (SMILES),test,system,conditions,how to read,quantity,result
N=C(N)c1ccc(OCc2ccc(Br)cc2COc2ccc(C(=N)N)cc2)cc1,,ATCC 17978,"concentration not given, together with: rifampicin",,MIC in combination,6.25 µg/mL
Cc1cc(Nc2ccc(S(F)(F)(F)(F)F)cc2)n2ccnc2n1,,HR1 clinical isolate,,,MIC,1.09 µg/mL
c1ccc(CSc2nc3ccccc3cc2CNCc2ccc(N3CCCCC3)cc2)cc1,"NADH-driven proton pumping, ACMA quenching",inverted membrane vesicles,32 µg/mL,,inhibition,89%
CN[C@@H]1[C@@H](O[C@H]2O[C@H](CO)[C@@H](N)[C@H](O)[C@H]2O)OC2C[C@@H](N)[C@@H](O[C@H]3[C@H](O)[C@@H](O)[C@H](N)C[C@@H]3N)OC2[C@@H]1O (stereo partly shown),broth microdilution,NCTC 13424,,relative to: 5% CO2 over ambient air,MIC fold shift,1
